Experimental data gathered from unrelated publications.
A part holds a random share of what one study measured. Changes are numbered by the printed parent chain.
Sequence of UniProt P00519 (whole entry, unmodified, looked up): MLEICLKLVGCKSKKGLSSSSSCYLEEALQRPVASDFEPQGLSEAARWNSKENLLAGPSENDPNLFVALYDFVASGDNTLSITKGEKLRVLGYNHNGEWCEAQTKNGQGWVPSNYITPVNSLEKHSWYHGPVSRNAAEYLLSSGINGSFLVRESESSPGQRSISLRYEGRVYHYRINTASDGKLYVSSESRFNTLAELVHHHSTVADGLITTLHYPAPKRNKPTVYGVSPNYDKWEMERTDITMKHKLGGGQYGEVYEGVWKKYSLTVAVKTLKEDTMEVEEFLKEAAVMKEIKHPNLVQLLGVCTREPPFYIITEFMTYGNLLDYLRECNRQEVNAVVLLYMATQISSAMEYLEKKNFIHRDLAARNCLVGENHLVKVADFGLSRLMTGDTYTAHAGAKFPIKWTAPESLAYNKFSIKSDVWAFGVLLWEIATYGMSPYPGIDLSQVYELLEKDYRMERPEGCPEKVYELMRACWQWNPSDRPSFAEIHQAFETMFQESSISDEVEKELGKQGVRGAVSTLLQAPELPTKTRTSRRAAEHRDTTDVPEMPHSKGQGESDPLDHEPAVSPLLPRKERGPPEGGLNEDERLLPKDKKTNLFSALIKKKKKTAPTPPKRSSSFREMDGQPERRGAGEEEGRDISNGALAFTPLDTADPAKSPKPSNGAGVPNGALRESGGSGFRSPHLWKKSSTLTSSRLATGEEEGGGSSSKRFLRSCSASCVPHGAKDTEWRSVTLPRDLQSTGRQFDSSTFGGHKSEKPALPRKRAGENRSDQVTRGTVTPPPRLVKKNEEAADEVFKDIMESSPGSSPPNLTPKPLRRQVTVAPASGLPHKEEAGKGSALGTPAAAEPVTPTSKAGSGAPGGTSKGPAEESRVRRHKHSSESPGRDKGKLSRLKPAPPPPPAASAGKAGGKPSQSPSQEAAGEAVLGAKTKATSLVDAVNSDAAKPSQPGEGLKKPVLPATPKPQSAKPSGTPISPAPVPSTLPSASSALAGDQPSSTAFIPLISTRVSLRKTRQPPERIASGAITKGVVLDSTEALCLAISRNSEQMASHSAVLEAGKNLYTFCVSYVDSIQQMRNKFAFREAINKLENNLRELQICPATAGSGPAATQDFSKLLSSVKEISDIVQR
Sequence of UniProt Q06187 (whole entry, looked up): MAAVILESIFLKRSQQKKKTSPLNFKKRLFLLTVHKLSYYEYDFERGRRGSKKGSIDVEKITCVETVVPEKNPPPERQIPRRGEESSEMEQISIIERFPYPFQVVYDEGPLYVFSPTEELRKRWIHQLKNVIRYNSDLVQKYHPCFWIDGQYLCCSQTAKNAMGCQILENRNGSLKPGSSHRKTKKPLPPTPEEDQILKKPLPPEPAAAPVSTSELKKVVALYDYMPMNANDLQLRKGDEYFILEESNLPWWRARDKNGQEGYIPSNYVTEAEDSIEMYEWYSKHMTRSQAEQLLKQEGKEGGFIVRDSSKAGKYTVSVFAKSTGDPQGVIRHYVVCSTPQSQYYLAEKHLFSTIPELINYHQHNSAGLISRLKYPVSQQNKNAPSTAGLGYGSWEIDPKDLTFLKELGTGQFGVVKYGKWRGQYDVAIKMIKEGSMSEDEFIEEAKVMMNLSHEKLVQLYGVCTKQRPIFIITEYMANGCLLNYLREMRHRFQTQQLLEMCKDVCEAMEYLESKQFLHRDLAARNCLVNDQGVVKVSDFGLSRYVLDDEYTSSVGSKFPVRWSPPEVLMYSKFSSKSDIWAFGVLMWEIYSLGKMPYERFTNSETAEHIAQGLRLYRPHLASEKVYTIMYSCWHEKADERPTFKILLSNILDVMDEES
Sequence of UniProt Q15208 (whole entry, looked up): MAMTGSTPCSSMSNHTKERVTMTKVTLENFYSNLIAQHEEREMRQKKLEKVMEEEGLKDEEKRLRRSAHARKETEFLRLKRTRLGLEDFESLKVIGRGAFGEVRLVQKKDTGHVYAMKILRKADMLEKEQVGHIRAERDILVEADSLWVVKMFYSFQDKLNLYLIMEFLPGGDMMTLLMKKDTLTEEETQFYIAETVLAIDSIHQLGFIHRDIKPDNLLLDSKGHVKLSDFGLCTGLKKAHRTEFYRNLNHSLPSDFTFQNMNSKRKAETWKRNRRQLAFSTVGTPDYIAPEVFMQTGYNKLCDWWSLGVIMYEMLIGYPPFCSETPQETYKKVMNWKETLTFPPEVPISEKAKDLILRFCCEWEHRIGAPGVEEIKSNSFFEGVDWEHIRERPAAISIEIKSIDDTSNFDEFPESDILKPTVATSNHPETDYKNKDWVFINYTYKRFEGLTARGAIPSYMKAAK
Sequence of UniProt Q16816 (whole entry, looked up): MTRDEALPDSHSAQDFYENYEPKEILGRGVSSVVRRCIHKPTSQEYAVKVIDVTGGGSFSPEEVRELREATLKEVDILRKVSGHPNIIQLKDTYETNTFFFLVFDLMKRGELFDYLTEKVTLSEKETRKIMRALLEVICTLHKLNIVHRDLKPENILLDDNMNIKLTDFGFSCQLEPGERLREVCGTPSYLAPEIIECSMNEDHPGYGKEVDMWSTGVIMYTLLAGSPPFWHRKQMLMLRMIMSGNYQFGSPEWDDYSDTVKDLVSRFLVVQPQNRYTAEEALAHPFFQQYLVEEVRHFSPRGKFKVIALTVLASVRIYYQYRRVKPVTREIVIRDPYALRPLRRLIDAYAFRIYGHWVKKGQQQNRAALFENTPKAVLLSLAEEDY
Sequence of UniProt Q8N4C8 (whole entry, looked up): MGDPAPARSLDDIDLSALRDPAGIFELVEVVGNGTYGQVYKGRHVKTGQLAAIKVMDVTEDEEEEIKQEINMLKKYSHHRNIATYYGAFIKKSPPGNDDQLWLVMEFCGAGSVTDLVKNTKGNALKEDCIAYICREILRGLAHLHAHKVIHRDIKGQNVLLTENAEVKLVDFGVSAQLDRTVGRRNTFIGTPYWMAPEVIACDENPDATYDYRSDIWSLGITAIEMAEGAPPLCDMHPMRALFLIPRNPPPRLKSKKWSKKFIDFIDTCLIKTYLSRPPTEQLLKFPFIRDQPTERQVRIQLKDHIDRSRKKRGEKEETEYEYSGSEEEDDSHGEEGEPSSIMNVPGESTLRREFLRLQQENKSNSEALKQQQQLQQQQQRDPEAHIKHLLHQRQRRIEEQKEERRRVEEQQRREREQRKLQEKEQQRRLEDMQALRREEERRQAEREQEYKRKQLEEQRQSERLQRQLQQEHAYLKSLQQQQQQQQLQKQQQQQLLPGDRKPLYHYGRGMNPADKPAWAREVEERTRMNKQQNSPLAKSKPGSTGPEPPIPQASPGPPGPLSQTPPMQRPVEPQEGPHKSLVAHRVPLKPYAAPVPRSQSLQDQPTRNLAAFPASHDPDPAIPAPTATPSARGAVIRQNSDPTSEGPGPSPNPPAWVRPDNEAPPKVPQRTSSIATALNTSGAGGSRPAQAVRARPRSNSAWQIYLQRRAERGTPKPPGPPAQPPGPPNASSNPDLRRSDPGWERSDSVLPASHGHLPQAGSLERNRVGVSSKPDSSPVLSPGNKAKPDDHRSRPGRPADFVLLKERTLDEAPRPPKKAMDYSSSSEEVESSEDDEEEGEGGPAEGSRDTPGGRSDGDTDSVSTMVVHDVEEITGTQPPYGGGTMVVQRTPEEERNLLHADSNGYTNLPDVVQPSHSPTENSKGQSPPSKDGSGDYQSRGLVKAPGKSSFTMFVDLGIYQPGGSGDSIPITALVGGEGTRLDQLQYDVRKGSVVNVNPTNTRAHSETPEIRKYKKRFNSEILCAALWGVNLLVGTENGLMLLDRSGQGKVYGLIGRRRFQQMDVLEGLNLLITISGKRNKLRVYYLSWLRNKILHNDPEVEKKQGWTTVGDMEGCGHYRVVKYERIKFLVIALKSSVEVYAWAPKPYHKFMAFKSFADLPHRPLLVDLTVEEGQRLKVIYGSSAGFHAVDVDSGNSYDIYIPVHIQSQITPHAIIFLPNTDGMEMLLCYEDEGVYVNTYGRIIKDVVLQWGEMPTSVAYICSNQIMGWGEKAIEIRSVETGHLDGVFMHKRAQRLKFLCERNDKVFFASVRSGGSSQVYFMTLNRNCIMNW
Sequence of UniProt P54646 (whole entry, looked up): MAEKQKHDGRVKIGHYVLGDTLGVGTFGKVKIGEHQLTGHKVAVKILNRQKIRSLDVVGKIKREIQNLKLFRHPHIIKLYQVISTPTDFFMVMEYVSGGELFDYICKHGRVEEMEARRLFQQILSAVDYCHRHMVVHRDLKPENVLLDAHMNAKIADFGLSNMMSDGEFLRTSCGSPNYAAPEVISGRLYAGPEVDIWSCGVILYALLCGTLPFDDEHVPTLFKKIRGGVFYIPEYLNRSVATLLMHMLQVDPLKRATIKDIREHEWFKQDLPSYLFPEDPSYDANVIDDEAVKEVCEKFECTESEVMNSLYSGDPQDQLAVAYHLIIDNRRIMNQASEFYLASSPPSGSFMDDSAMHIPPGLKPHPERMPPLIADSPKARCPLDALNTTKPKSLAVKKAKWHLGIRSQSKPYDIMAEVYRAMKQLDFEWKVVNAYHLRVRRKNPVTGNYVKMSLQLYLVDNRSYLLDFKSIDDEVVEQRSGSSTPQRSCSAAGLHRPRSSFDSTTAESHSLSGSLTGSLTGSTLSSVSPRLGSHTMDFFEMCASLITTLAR
Sequence of UniProt P50750 (whole entry, looked up): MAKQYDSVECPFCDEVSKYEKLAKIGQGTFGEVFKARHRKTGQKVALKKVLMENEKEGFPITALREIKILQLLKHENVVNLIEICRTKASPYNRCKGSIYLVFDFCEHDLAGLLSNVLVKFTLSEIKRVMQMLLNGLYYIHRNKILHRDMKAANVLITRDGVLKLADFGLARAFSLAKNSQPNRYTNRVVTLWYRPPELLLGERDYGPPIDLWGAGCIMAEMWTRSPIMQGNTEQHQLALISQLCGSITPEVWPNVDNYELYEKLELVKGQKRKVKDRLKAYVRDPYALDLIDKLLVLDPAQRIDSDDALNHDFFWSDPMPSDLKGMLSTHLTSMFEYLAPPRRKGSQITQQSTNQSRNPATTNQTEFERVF

Set 1
SMILES: COc1ccc2c(O[C@@H]3C[C@H]4C(=O)N[C@]5(C(=O)O)CC5/C=C\CCCCC[C@H](NC(=O)OC5CCCC5)C(=O)N4C3)cc(-c3csc(NC(=O)C(C)C)n3)nc2c1C (stereo partly drawn)
Observed: cell-free assay
Technique: competition with immobilised ligand
Concentration: 1 µM
Quantity: remaining binding
Mitogen-activated protein kinase kinase kinase kinase 4 (MAP4K4, Homo sapiens, UniProt O95819): 100%
Tyrosine-protein kinase ABL1, phosphorylated (ABL1, Homo sapiens, UniProt P00519, F317L): 99%
Misshapen-like kinase 1 (MINK1, Homo sapiens, UniProt Q8N4C8): 62%
Serine/threonine-protein kinase Nek9 (NEK9, Homo sapiens, UniProt Q8TD19): 100%
Ribosomal protein S6 kinase beta-1 (RPS6KB1, Homo sapiens, UniProt P23443): 93%
Myosin-IIIa (MYO3A, Homo sapiens, UniProt Q8NEV4): 100%
Phosphorylase b kinase gamma catalytic chain, skeletal muscle/heart isoform (PHKG1, Homo sapiens, UniProt Q16816): 96%
Tyrosine-protein kinase BTK (BTK, Homo sapiens, UniProt Q06187): 85%
Tyrosine-protein kinase ABL1, phosphorylated (ABL1, Homo sapiens, UniProt P00519, F317I): 76%
5'-AMP-activated protein kinase catalytic subunit alpha-2 (PRKAA2, Homo sapiens, UniProt P54646): 87%

Set 2
Target: TAR DNA-binding protein 43, full length, His tag (TARDBP, Homo sapiens, UniProt Q13148, residues 1-414)
Technique: RNA Bind-n-Seq
Form: RNA
Medium: in vitro
Concentration: 20 nM
Setting: 6-mer, flanks averaged, single round
With: 150 mM KCl
Relative to: input library
Direction: higher = stronger binding
Quantity: 6-mer enrichment (R)
ACCUAU: 0.595
AAUACU: 0.619
GGUACG: 1.81
UCAAGC: 0.638
AGAUAG: 0.875
UACAAU: 0.663
UCAAGA: 0.651
GAUUAG: 0.823

Set 3
Target: CRIPT, C-terminal peptide
Technique: DHFR complementation, deep sequencing
Medium: yeast
Setting: single substitutions, model-inferred values
Relative to: wild type
Direction: higher = weaker binding
Quantity: binding free energy change
Starting sequence: ERBIN, PDZ domain 1 (human); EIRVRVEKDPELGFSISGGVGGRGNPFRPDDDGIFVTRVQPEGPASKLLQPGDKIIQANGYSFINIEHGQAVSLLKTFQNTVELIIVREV; partner TKNYKQTSV
N59Q: -0.142 kcal/mol
I86C: 0.0169 kcal/mol
P26Q: 0.721 kcal/mol
H68V: 1.49 kcal/mol
D53P: 1.67 kcal/mol
L74P: 0.605 kcal/mol
P29H: -0.0015 kcal/mol
Q40R: -0.000294 kcal/mol

Set 4
SMILES: N#CC(c1ccnc(NCCc2cccnc2)n1)c1nc2ccccc2s1 (stereo not drawn)
Observed: enzyme activity
Mode: inhibitor
Concentration: 0.5 µM
Relative to: control
Quantity: remaining activity
Cyclin-dependent kinase 9, with cyclin T1 (CDK9, Homo sapiens, UniProt P50750): 23.3%
Serine/threonine-protein kinase Chk1 (CHEK1, Homo sapiens, UniProt O14757): 94.6%
Mitogen-activated protein kinase kinase kinase kinase 2 (MAP4K2, Homo sapiens, UniProt Q12851): 76.9%
Mitogen-activated protein kinase kinase kinase 10 (MAP3K10, Homo sapiens, UniProt Q02779): 79.6%
Tyrosine-protein kinase BTK (BTK, Homo sapiens, UniProt Q06187): 88.8%
Serine/threonine-protein kinase 38 (STK38, Homo sapiens, UniProt Q15208): 100%
Ephrin type-A receptor 5 (EPHA5, Homo sapiens, UniProt P54756): 113%

Repeated from above (set 4):
Ephrin type-A receptor 5 (EPHA5, Homo sapiens, UniProt P54756): 113%
Mitogen-activated protein kinase kinase kinase kinase 2 (MAP4K2, Homo sapiens, UniProt Q12851): 76.9%
Mitogen-activated protein kinase kinase kinase 10 (MAP3K10, Homo sapiens, UniProt Q02779): 79.6%
Tyrosine-protein kinase BTK (BTK, Homo sapiens, UniProt Q06187): 88.8%
Cyclin-dependent kinase 9, with cyclin T1 (CDK9, Homo sapiens, UniProt P50750): 23.3%
